Published values collected from several papers.
Lines come from different studies, so protocols differ. ± gives the spread as reported.
DRD3: D(3) dopamine receptor (DRD3, Homo sapiens, UniProt P35462)
Sequence of UniProt P35462 (whole entry, looked up): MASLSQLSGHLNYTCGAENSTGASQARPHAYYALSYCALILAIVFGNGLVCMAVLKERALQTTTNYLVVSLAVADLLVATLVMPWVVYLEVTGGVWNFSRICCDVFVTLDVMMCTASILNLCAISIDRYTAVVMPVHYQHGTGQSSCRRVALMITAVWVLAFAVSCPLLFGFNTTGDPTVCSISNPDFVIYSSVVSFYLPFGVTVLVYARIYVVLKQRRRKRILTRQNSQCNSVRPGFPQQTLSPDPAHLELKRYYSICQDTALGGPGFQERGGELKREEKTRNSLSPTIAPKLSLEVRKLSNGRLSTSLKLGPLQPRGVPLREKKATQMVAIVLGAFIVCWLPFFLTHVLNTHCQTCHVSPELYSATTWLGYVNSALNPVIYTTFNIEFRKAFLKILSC
CDK2 with cyclin A: Cyclin-dependent kinase 2, with cyclin A (CDK2, Homo sapiens, UniProt P24941)
ESR1: Estrogen receptor (ESR1, Homo sapiens, UniProt P03372)
Sequence of UniProt P03372 (whole entry, looked up): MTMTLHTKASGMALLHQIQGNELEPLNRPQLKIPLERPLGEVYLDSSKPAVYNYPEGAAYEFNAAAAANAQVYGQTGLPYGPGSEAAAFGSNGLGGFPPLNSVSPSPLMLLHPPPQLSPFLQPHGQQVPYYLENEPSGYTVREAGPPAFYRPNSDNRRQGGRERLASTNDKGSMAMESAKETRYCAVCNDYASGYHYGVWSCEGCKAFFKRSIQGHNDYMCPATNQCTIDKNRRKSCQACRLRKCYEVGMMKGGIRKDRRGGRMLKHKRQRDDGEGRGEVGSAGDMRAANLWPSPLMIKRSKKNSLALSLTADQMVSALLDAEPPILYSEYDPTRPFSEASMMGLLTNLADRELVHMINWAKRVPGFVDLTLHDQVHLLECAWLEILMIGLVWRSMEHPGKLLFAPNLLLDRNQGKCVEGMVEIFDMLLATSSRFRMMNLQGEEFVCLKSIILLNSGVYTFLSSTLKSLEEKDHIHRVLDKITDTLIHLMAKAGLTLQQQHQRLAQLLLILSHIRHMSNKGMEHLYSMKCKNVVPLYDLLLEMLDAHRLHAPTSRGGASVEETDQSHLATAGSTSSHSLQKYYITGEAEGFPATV
MBLAC2: MBLAC2 (Homo sapiens, UniProt Q68D91)
Sequence of UniProt Q68D91 (whole entry, looked up): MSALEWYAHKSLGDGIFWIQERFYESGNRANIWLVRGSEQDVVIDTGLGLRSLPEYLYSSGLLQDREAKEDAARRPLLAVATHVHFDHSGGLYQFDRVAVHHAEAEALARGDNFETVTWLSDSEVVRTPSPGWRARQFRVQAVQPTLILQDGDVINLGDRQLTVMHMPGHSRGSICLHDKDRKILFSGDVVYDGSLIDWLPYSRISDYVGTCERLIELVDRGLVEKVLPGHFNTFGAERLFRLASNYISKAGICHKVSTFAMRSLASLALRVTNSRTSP
CDK2: Cyclin-dependent kinase 2 (CDK2, Homo sapiens, UniProt P24941)
SLC10A1: Hepatic sodium/bile acid cotransporter (SLC10A1, Homo sapiens, UniProt Q14973)
Sequence of UniProt Q14973 (whole entry, looked up): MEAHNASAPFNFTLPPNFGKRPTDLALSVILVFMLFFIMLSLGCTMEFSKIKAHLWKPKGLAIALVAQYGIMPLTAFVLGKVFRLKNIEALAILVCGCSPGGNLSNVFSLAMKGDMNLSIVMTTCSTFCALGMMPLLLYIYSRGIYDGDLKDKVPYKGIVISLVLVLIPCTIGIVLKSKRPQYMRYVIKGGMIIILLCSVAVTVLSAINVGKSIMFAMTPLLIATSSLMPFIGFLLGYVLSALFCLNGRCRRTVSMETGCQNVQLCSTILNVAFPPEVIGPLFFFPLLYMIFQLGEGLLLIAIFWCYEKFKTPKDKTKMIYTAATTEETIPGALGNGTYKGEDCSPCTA
RORC: Nuclear receptor ROR-gamma (RORC, Homo sapiens, UniProt P51449)
Sequence of UniProt P51449 (whole entry, looked up): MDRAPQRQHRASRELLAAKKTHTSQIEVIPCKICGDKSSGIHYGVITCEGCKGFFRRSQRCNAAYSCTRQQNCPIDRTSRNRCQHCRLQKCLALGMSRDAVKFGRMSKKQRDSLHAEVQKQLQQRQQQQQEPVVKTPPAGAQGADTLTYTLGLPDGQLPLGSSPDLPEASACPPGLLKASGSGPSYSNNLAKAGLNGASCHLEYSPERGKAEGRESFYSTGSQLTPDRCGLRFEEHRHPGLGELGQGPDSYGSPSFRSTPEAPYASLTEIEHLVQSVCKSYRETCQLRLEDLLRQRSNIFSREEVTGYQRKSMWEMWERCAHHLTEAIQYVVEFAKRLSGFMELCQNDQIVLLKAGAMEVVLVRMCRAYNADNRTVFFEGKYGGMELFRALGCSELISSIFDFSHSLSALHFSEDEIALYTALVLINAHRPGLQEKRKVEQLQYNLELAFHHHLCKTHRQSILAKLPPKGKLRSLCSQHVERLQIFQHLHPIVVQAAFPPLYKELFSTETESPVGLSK
Sequence of UniProt Q9GZV3 (whole entry, looked up): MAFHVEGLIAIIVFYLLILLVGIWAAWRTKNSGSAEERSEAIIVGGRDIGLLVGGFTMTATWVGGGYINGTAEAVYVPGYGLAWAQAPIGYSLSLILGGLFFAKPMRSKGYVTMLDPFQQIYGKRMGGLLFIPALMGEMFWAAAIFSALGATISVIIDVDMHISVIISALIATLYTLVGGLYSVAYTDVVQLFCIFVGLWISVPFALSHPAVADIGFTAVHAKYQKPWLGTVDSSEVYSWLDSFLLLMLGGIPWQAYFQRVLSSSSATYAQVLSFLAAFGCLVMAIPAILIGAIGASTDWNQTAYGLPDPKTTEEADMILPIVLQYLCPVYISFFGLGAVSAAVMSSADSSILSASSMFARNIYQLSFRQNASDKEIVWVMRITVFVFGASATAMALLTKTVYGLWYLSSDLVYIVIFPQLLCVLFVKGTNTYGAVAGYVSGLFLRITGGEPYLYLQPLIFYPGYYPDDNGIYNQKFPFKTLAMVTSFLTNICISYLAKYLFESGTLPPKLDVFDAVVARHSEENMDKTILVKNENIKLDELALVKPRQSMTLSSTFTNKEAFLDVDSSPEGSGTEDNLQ
Sequence of UniProt Q9P2K8 (whole entry, looked up): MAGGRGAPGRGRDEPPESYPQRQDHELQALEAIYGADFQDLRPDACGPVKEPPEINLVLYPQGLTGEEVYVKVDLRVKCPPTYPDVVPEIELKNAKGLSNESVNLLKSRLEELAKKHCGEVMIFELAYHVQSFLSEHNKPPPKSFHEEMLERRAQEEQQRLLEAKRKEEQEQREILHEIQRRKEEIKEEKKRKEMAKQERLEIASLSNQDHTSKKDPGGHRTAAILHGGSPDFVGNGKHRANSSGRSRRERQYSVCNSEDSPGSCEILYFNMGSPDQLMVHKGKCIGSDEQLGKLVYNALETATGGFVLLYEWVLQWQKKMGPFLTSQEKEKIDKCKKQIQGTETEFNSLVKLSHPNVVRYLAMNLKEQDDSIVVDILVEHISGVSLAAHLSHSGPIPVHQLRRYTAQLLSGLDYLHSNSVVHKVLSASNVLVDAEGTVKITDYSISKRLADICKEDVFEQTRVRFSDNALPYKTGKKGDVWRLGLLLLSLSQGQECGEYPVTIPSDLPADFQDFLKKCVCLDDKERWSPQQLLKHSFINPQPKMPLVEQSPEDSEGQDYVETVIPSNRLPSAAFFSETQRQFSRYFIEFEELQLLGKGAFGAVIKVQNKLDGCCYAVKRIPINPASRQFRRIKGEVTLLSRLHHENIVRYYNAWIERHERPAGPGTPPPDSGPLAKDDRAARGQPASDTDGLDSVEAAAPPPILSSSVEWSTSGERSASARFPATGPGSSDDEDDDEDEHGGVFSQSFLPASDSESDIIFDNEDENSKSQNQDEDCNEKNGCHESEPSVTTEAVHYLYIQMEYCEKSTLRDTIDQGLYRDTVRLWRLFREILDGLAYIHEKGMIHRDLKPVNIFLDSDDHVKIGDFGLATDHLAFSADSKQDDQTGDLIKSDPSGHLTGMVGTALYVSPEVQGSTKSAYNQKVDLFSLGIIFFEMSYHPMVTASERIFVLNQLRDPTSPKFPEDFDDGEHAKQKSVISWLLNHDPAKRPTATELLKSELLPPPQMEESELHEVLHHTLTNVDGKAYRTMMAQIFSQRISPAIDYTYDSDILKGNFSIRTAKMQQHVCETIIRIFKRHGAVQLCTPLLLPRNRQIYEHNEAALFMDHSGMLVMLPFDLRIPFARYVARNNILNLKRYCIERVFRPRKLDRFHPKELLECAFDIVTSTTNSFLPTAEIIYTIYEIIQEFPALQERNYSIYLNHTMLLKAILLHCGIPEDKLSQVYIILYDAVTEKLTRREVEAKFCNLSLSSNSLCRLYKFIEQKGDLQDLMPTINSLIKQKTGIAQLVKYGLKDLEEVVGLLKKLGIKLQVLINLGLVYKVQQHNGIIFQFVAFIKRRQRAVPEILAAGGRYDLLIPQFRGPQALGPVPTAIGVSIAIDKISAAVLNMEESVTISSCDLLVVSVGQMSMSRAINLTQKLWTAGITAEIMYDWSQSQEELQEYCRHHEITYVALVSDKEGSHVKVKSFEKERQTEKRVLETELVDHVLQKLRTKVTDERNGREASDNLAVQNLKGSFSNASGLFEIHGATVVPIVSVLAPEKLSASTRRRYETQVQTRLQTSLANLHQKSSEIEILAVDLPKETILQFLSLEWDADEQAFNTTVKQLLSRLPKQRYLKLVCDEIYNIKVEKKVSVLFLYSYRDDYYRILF
Sequence of UniProt P45984 (whole entry, looked up): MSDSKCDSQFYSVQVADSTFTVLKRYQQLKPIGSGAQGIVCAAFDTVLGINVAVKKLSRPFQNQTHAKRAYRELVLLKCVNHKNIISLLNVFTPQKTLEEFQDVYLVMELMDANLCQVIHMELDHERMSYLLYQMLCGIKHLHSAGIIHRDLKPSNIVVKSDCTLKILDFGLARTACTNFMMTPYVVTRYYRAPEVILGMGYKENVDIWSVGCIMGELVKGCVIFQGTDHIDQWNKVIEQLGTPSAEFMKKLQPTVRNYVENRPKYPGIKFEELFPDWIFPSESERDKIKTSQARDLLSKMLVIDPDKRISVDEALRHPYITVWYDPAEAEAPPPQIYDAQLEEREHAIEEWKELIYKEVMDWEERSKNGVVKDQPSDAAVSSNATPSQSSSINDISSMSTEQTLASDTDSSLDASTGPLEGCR

Structure (SMILES) | target | test | test system | setting | endpoint | value
O=C(c1c[nH]cc1S(=O)(=O)Nc1ccc(C(F)(F)F)c(Cl)c1)N1CCC(F)(F)C1 | DRD3 | Go activation, antagonist, BRET |  | together with: dopamine | IC50 | > 100 µM
COc1cccc(NC(=O)CSc2nnnn2C)c1 | CDK2 with cyclin A |  |  |  | Kd | > 100 µM
COc1c(O)cc2occ(-c3ccc(O)cc3)c(=O)c2c1O | ESR1 | array formation, agonist | ERα-GFP PRL-HeLa | 1 h | EC50 | 2.46 µM
CCCCOc1ccc(CC(=O)NO)cc1 | MBLAC2 | inhibitor, competition pulldown | SW620 and MV4-11 lysate | 1 h | Kd | > 30.2 µM
N#C[C@@]12C[C@@H]1[C@@H](n1cnc3c(NC4CCCC4)nc(I)nc31)[C@H](O)[C@@H]2O | 5-hydroxytryptamine receptor 2C (Rattus norvegicus, UniProt P08909) | antagonist, Gq dissociation BRET |  | rat receptor | Kb | 0.148 µM
O=c1n(CCCN2CCN(c3cccc(Cl)c3)CC2)nc2ccccn12 | SLC5A7 (Homo sapiens, UniProt Q9GZV3) |  |  |  | Ki | > 10 µM
COc1cccc(-n2nnnc2SCC(=O)Nc2c(C)cc(C)cc2C)c1 | CDK2 | binding |  |  | Kd | > 100 µM
COc1ccc(-c2cc(=O)c3c(O)cc(O[C@@H]4O[C@H](CO[C@@H]5O[C@@H](C)[C@H](O)[C@@H](O)[C@H]5O)[C@@H](O)[C@H](O)[C@H]4O)cc3o2)cc1 | ESR1 | array formation, agonist | ERα-GFP PRL-HeLa | 1 h | EC50 | 0.104 µM
Cc1[nH]c(C)c(S(N)(=O)=Nc2ccc(C(F)(F)F)c(Cl)c2)c1C(=O)N1CCC(F)(F)C1 (stereo not drawn) | DRD3 | Go activation, antagonist, BRET |  | together with: dopamine | IC50 | > 100 µM
CN1CCN(c2ccc(Nc3ncc4cc(C#N)c(=O)n(C5CCCC5)c4n3)cc2)CC1 | Mitogen-activated protein kinase 9, isoform alpha-2 (MAPK9, Homo sapiens, UniProt P45984) |  |  |  | IC50 | 3.62 µM
Cc1cc(S(=O)(=O)Nc2ccc(C(F)(F)F)c(Cl)c2)c(C)[nH]1 | DRD3 | β-arrestin recruitment, antagonist, PathHunter |  | together with: dopamine EC80 | IC50 | > 100 µM
CNC(=C[N+](=O)[O-])NCCSCc1ccc(CN(C)C)o1 | SLC10A1 | taurocholate uptake, inhibitor | NTCP-expressing HEK293 | together with: 10 µM taurocholate | Ki | 339 ± 433 µM
O=C(COP(=O)(O)O)[C@@H](O)[C@H](O)[C@H](O)COP(=O)(O)O | Pyruvate kinase PKM (PKM, Homo sapiens, UniProt P14618) | enzyme activity, activator | SK-HEP1 cell lysate | together with: 0.2 mM PEP, 2 mM ADP | AC50 | 0.0224 ± 0.0143 µM
O=C(CSc1nnc(-c2ccccc2O)n1-c1ccccc1)Nc1cccc(C(=O)O)c1 | CDK2 | binding |  |  | Kd | > 100 µM
O=C(CCCCCCNC(=O)c1cnc(N(c2ccccc2)c2ccccc2Cl)nc1)NO | MBLAC2 | inhibitor, competition pulldown | SW620 and MV4-11 lysate | 1 h | Kd | 1.55 µM
CNC(=O)c1cc(Oc2ccc(NC(=O)Nc3ccc(Cl)c(C(F)(F)F)c3)cc2)ccn1 | SLC10A1 | taurocholate uptake, inhibitor | NTCP-expressing HEK293 | together with: 10 µM taurocholate | Ki | 41.5 ± 8.1 µM
CC[C@@H]1[C@H](F)C(=O)N[C@@H]1COc1nccc2cc(C(N)=O)c(OC)cc12 | EIF2AK4 (Homo sapiens, UniProt Q9P2K8) | ATP probe binding, KiNativ profiling, measured: GCN2 Lys2 probe site | THP-1 cell lysate |  | IC50 | > 5 µM
O=S(=O)(c1cncc(C(F)(F)F)c1)N1CCc2ccc(OCc3c(F)cccc3Cl)cc21 | RORC | reporter gene, agonist, GAL4 luciferase reporter |  | together with: ursolic acid 2 µM | EC50 | 0.47 ± 0.07 µM

Structure (SMILES) | target | test | test system | setting | endpoint | value
Cc1ccc(NS(=O)(=O)c2cc(C(=O)Nc3ccccc3C(=O)N3CCOCC3)ccc2Cl)c(C)c1 | CDK2 | binding |  |  | Kd | > 100 µM
C#Cc1cccc2oc(-c3ccccc3)cc(=O)c12 | Cytochrome P450 2B1 (Cyp2b1, Rattus norvegicus, UniProt P00176) | fluorimetric PROD | recombinant supersomes | 6 min, pH 7.6, together with: pentoxyresorufin | Ki | > 25 µM
O=C1C[C@@H](c2ccc(O)cc2)Oc2cc(O)ccc21 | ESR1 | array formation, agonist | ERα-GFP PRL-HeLa | 1 h | EC50 | 2.27 µM
Cc1ccnc(NS(=O)(=O)c2ccc(NC(=O)c3cncc(Br)c3)cc2)n1 | CDK2 with cyclin A |  |  |  | Kd | > 100 µM
CC1Cc2ccc(OCc3c(F)cccc3Cl)cc2N1S(=O)(=O)c1cccc(C(F)(F)F)c1 (stereo not drawn) | RORC | IL-17 production, inverse agonist | HEK-293T | together with: ursolic acid | EC50 | 1.13 µM
O=S(=O)(NCCSc1ccccn1)c1ccc(Br)cc1 | CDK2 | binding |  |  | Kd | > 100 µM
O=S(=O)(c1cccc(C(F)(F)F)c1)N1CCc2ccc(OCc3c(F)cccc3Cl)cc21 | RORC | reporter gene, agonist, GAL4 luciferase reporter |  | together with: ursolic acid 2 µM | EC50 | 0.26 ± 0.04 µM
CC/C(=C(\c1ccccc1)c1ccc(OCCN(C)C)cc1)c1ccccc1 | SLC10A1 | taurocholate uptake, inhibitor | NTCP-expressing HEK293 | together with: 10 µM taurocholate | Ki | 87.5 ± 53.8 µM
O=c1cc(-c2ccc(O)c(O)c2)oc2cc(O)cc(O)c12 | ESR1 | array formation, agonist | ERα-GFP PRL-HeLa | 1 h | EC50 | 1.66 µM
CN(C)C(=N)N=C(N)N | SLC10A1 | taurocholate uptake, inhibitor | NTCP-expressing HEK293 | together with: 10 µM taurocholate | Ki | 255 ± 118 µM
O=S(=O)(c1cccc(C(F)(F)F)c1)N1CCc2ccc(OCc3c(Cl)cccc3C(F)(F)F)cc21 | RORC | reporter gene, agonist, GAL4 luciferase reporter |  | together with: ursolic acid 2 µM | EC50 | 0.09 ± 0.02 µM
Cc1c(C(=O)N2CCC(F)(F)C2)c(S(=O)(=O)Nc2ccc(C(F)(F)F)c(Cl)c2)c(C)n1C | DRD3 | Go activation, antagonist, BRET |  | together with: dopamine | IC50 | > 100 µM
O=C1C[C@@H](c2ccc(O)c(O)c2)Oc2cc(O)cc(O)c21 | ESR1 | array formation, agonist | ERα-GFP PRL-HeLa | 1 h | EC50 | 0.963 µM
Cc1[nH]c(C)c(S(=O)(=O)Nc2ccc(C(F)(F)F)c(Cl)c2)c1C(=O)N1CCC(C)(C)C1 | DRD3 | Go activation, antagonist, BRET |  | together with: dopamine | IC50 | > 100 µM
CS(=O)(=O)CCNCc1ccc(-c2ccc3ncnc(Nc4ccc(OCc5cccc(F)c5)c(Cl)c4)c3c2)o1 | SLC10A1 | taurocholate uptake, inhibitor | NTCP-expressing HEK293 | together with: 10 µM taurocholate | Ki | 95.5 ± 38.9 µM
COc1ccc(C(=O)CSc2nnc(-c3ccc(OC)c(OC)c3)n2-c2ccccc2)cc1 | CDK2 with cyclin A |  |  |  | Kd | > 100 µM
O=C(c1ccccc1)c1ccc2n1CCC2C(=O)O (stereo not drawn) | SLC10A1 | taurocholate uptake, inhibitor | NTCP-expressing HEK293 | together with: 10 µM taurocholate | Ki | 254 ± 193 µM
Cc1ccc(NS(=O)(=O)c2c(C(=O)N3CCC(F)(F)C3)c(=O)[nH]n2C)cc1Cl | DRD3 | β-arrestin recruitment, antagonist, PathHunter |  | together with: dopamine EC80 | IC50 | > 100 µM

Some of these lines once more:
Structure (SMILES) | target | test | test system | setting | endpoint | value
Cc1ccnc(NS(=O)(=O)c2ccc(NC(=O)c3cncc(Br)c3)cc2)n1 | CDK2 with cyclin A |  |  |  | Kd | > 100 µM
O=C(CSc1nnc(-c2ccccc2O)n1-c1ccccc1)Nc1cccc(C(=O)O)c1 | CDK2 | binding |  |  | Kd | > 100 µM
O=C(c1c[nH]cc1S(=O)(=O)Nc1ccc(C(F)(F)F)c(Cl)c1)N1CCC(F)(F)C1 | DRD3 | Go activation, antagonist, BRET |  | together with: dopamine | IC50 | > 100 µM
CC[C@@H]1[C@H](F)C(=O)N[C@@H]1COc1nccc2cc(C(N)=O)c(OC)cc12 | EIF2AK4 (Homo sapiens, UniProt Q9P2K8) | ATP probe binding, KiNativ profiling, measured: GCN2 Lys2 probe site | THP-1 cell lysate |  | IC50 | > 5 µM
Cc1c(C(=O)N2CCC(F)(F)C2)c(S(=O)(=O)Nc2ccc(C(F)(F)F)c(Cl)c2)c(C)n1C | DRD3 | Go activation, antagonist, BRET |  | together with: dopamine | IC50 | > 100 µM
Cc1ccc(NS(=O)(=O)c2c(C(=O)N3CCC(F)(F)C3)c(=O)[nH]n2C)cc1Cl | DRD3 | β-arrestin recruitment, antagonist, PathHunter |  | together with: dopamine EC80 | IC50 | > 100 µM
